Assay results from different studies.
Parts stem from different laboratories: compare values within a part only.

Study 1
Target: RNA binding protein fox-1 homolog 2, RRM domain, GST-SBP tag (RBFOX2, Homo sapiens, UniProt O43251-10, residues 100-194)
Technique: RNA Bind-n-Seq
Form: RNA
Medium: in vitro
Concentration: 365 nM
Notes: natural RNA segment, single round, ends assumed
Relative to: no-protein control
Direction: higher = stronger binding
Shared flanks, not repeated: GGGAGUUCUACAGUCCGACGAUC … UGGAAUUCUCGGGUGCCAA
Target sequence (chain): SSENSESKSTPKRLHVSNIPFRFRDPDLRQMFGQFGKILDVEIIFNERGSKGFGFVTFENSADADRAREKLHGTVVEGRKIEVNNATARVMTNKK
`UGUAAUGGUAUAAUGCCCUUCCAUCACACAACAGGACACCACCCCAGUUUUGUUUUCUGGGUUUCUUCCCCCUUUGUAGGAAUCAGAUACCUUUUGUAGAAAAAAAUGGC`: “RBNS enrichment (R)” 0.821.
`CAGGCCUGAGUUCCUAAGGAAACCACCCUACCGGGGUGGAAGGGAGGGUCAGGGAAGAAACCCACUCUUGCUCUACGAGGAGCAAGUGCCUGCCCCCUCCCAGCAGCCAG`: “RBNS enrichment (R)” 0.392.
Under “RBNS enrichment (R)”, `CACCCUGGCUGAAGUCAGCUUGACCUAGGUCUUGACCCUCAUCCAGCAAGGGACUCGACAGACCCAAGGGUCCCUGGAACGUAGGGAGGGGCUGGGGGUCAGUCCAGCCC` is recorded as 0.291.
Under “RBNS enrichment (R)”, `UGGCAUUUCCUUCAUAGAUAGACCUGGCCUGUCACCAGGAGUCCUACACUUCUGAAGUAUGAGCAAAGCUUAAGGUGAGUCUUGUGAUAUCUCUUUCACUUCCUCCCCAG` is recorded as 0.299.
`AAAUGGCUACAGAUAAUGCUCUUUUCUUUUGUGAGGUCUCUUCAUUUAAUGCACUGCCCAGAAAGAGCCAUGUGUAAGAGUUGUUCUCUGUUUGAGGAACUAACUACAUG` — result for “RBNS enrichment (R)”: 0.567.
`GAGGUCAGGUCUUGCCCUAAGCUCAAAACAAGUGAGAGGUGUCCUGACCUAGCUCAUAGGGCAAAUGGUCCUAAUAGGAUGGGCAAUCCAGAUGCCUGAGCCCCUUCACU` — result for “RBNS enrichment (R)”: 0.174.
Under “RBNS enrichment (R)”, `AGGAGUGGGUAUCUCUGGCAGCAUGGGCUGCCCGCAGGCUGGGCAGUGGGUCCCUCCACACCUACCUCAGGGAGCCAGUGUGCGGGCGGGAACUCCACAGCAUGCCUGUU` is recorded as 3.5.
`UCAGGAAUGGUUAAUUCUUCAACGUUGGUAUGAUAAUGAUAACUUGUUUUGACUUGAAUAAAGUACUACAUCAGUGUGGAAAAAAAUUCUGAUACAUUAGCAGCUAUGUA` — result for “RBNS enrichment (R)”: 0.581.
For `UUUAUUUUAAGAGUUAUUUCAUUUUCAUCCUAAGAGUGAUGGGAGAGAAAUGUCCAAAAGAGAUCUGCUGAUCUGCUGAGAGUUUCAAACAAACAAAAAAAUAAUCUCUA`, “RBNS enrichment (R)” read 0.468.
`CUGCGGCCGGCGAACCCCACGGAGGAGGGCCUGGCCAGCCUGCACAGCGUGCUGUUCCGCAAGCAGCCGUUCCUGUGGCGCGCUGCACUGCUCUACUACACCAUCCACCG`: “RBNS enrichment (R)” 0.623.
`UCAGUCAGGAUGGAACAGUGCUACAAGCACCAGCCUGCCUCUGAGCAGUGCUCGGAACAGCUGAGGCCGUGGCGGGCUCCACUAACCCCCAGUGUUAUCGUGUUUUAUAG`: “RBNS enrichment (R)” 0.967.
`GCCUGGAGCCUUGCUCUCUGGGCACAGAGGGGUCCACUCUCCUGCCUGCUGGGACCUAUGGAAGGGGCUUCCUGGCCAAGGCCCCCUCUUCCAGAGGAGGAGCAGGGAUC`: “RBNS enrichment (R)” 0.321.

Study 2
Target: Prothrombin, mature alpha-thrombin (F2, Homo sapiens, UniProt P00734)
Technique: aptamer microarray, sandwich
Form: DNA with 2'F-ANA
Medium: in vitro
Concentration: 200 nM
Notes: whole 15-mer aptamer, many near background
Added: Cy3 exosite-II aptamer, 400 nM
Direction: higher = stronger binding
Sequence: GGTTGGTGTGGTTGG
`2'F-ANA at 1 2 6 9 12 13 14 15` — result for “mean fluorescence intensity”: 62.5 a.u.
`2'F-ANA at 1 4 5 6 9 11 12 15`: “mean fluorescence intensity” 77.2 a.u.
Under “mean fluorescence intensity”, `2'F-ANA at 1 3 5 9 10 13 15` is recorded as 81.1 a.u.
For `2'F-ANA at 1 5 9 12 13 14`, “mean fluorescence intensity” read 45.3 a.u.
Under “mean fluorescence intensity”, `2'F-ANA at 3 6 9 10 15` is recorded as 467 a.u.
For `2'F-ANA at 1 2 3 5 6 7 8 9 10 11 12 14`, “mean fluorescence intensity” read 60.5 a.u.
`2'F-ANA at 1 2 3 4 5 6 7 9 10 11 12 13`: “mean fluorescence intensity” 52 a.u.
`2'F-ANA at 1 2 5 7 8 9 10 12 15`: “mean fluorescence intensity” 52.6 a.u.
`2'F-ANA at 1 4 8 9 10 11 12 14 15` — result for “mean fluorescence intensity”: 47.3 a.u.
`2'F-ANA at 1 5 6 10 11 12 15`: “mean fluorescence intensity” 82.5 a.u.
`2'F-ANA at 1 2 8 9 12 13 14`: “mean fluorescence intensity” 62.2 a.u.
`2'F-ANA at 2 8 11`: “mean fluorescence intensity” 500 a.u.
For `2'F-ANA at 1 4 5 6 7 8 9 11 12 13`, “mean fluorescence intensity” read 70.4 a.u.
`2'F-ANA at 2 5 8 10 12 15` — result for “mean fluorescence intensity”: 47.6 a.u.
`2'F-ANA at 1 3 4 8 9 11`: “mean fluorescence intensity” 198 a.u.
`2'F-ANA at 1 3 6 7 9 12 15`: “mean fluorescence intensity” 521 a.u.
`2'F-ANA at 2 3 7 8 9 12 13` — result for “mean fluorescence intensity”: 937 a.u.
Under “mean fluorescence intensity”, `2'F-ANA at 2 3 4 5 8 10 11 12 13` is recorded as 52.1 a.u.
For `2'F-ANA at 1 2 7 9 10 11 13 15`, “mean fluorescence intensity” read 53.1 a.u.
`2'F-ANA at 2 4 5 6 8 11 12 13 15`: “mean fluorescence intensity” 72.4 a.u.
`2'F-ANA at 4 6 8 9 11 14`: “mean fluorescence intensity” 70.9 a.u.
Under “mean fluorescence intensity”, `2'F-ANA at 1 2 5 8 12 14` is recorded as 51 a.u.

Study 3
Target: Histone acetyltransferase KAT6A, both winged helices, GST fusion (KAT6A, Homo sapiens, UniProt Q92794, residues 1-181)
Technique: protein binding microarray
Form: double-stranded DNA, one strand shown
Medium: in vitro
Concentration: not given
Notes: 8-mer, flanks averaged, mean of 2 arrays, mostly near background
Relative to: not given
Direction: higher = stronger binding
Residues (chain): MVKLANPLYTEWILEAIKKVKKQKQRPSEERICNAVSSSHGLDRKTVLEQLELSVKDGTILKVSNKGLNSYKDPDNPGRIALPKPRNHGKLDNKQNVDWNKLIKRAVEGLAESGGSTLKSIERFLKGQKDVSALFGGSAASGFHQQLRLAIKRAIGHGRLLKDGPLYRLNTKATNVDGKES
`AGAAGCTC` gave an E-score of -0.0921.
The E-score of `ATAGGGGA` is reported as -0.276.
With `CGGAATAG` the E-score was 0.224.
With `CAAAGAGG` the E-score was -0.0992.
`AATCATCT` has an E-score of -0.0864.
`CGAAGGCA` has an E-score of -0.186.
For `CCACCCGA`, the E-score was -0.0478.
`GATTATAC` has an E-score of -0.0799.
`CACTCGGG` gave an E-score of 0.0608.
With `TATACGCA` the E-score was 0.0776.
For `CGCTGCGC`, the E-score was 0.299.
The E-score of `CGCTGCAG` is reported as 0.114.
The E-score of `AACCGCTT` is reported as 0.205.
`GGCGGAAA` gave an E-score of 0.158.
With `CAGGTCGC` the E-score was 0.0377.
`AATCCACC` gave an E-score of -0.25.
`CATCGAAA` has an E-score of 0.00793.
The E-score of `GCAGCACC` is reported as -0.0825.
For `ATTGCCTG`, the E-score was -0.126.

Study 4
Target: Sal-like protein 4, full length isoform B (SALL4, Homo sapiens, UniProt Q9UJQ4-2, residues 1-616)
Technique: universal PBM
Form: double-stranded DNA, one strand shown
Medium: in vitro
Concentration: not given
Notes: 8-mer, flanks averaged, mean of replicates
Direction: higher = stronger binding
Residues (chain): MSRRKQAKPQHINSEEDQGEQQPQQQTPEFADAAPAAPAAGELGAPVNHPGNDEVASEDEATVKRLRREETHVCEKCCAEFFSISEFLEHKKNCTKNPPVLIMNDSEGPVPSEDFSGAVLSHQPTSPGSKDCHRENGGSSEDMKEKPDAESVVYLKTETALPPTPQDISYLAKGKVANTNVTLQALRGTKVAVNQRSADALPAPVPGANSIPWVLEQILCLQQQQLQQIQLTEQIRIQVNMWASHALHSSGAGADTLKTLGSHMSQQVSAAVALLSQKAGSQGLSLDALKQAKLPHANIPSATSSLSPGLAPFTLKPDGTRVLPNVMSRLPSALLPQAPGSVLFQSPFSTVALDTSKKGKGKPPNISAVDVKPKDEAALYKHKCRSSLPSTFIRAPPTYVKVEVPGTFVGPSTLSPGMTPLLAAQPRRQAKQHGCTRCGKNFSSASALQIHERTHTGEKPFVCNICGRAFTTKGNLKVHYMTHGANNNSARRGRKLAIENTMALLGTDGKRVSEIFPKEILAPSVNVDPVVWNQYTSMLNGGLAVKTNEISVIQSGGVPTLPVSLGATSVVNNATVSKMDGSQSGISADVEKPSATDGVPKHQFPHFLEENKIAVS
For `TAGTGGGA`, the E-score was -0.0917.
With `AAACGGGG` the E-score was -0.0603.
The E-score of `AAAACCGA` is reported as -0.00746.
`GGCCACCA` gave an E-score of -0.17.
`GCGGCTCC` has an E-score of -0.354.
`GCTGGAAC` has an E-score of -0.125.
`CTCACTGC` gave an E-score of -0.115.
The E-score of `AACTCCTG` is reported as -0.0815.
`TAGGAATA` gave an E-score of 0.229.
With `AGAGAATG` the E-score was 0.0363.
`ACTACCCG` gave an E-score of -0.254.
With `ACAGTCGA` the E-score was -0.0966.
`ACCTAGCT` has an E-score of -0.14.
For `CCGAGATA`, the E-score was -0.0265.
`CTATGTAC` gave an E-score of 0.188.
For `ACACGTCC`, the E-score was -0.0517.
The E-score of `TGTAACAA` is reported as 0.179.
For `AGGTGTAA`, the E-score was -0.00462.
For `AGATTCTA`, the E-score was 0.144.
`CGCCGGCA` gave an E-score of -0.29.
The E-score of `CGGCGTGC` is reported as -0.257.
With `AACATACT` the E-score was 0.214.
For `ATTAAGAG`, the E-score was 0.197.
For `ACCCGTGA`, the E-score was -0.302.
For `CGCAGGGC`, the E-score was -0.172.

Study 5
Target: TAR DNA-binding protein 43, full length, His tag (TARDBP, Homo sapiens, UniProt Q13148, residues 1-414)
Technique: RNA Bind-n-Seq
Form: RNA
Medium: in vitro
Concentration: 20 nM
Notes: 6-mer, flanks averaged, single round
Added: 150 mM KCl
Relative to: input library
Direction: higher = stronger binding
`CAAUGA` — result for “6-mer enrichment (R)”: 0.664.
`GGGUUC` — result for “6-mer enrichment (R)”: 1.67.
`CGCCUA`: “6-mer enrichment (R)” 0.645.
For `GCAUAA`, “6-mer enrichment (R)” read 0.743.
`ACUGGU`: “6-mer enrichment (R)” 0.79.
`GCUUUG`: “6-mer enrichment (R)” 0.811.
`AGCUGG`: “6-mer enrichment (R)” 1.44.
`GCUCUU`: “6-mer enrichment (R)” 0.6.
`UAGCGU` — result for “6-mer enrichment (R)”: 0.811.
For `UUCAGC`, “6-mer enrichment (R)” read 0.613.
`AGUUAA`: “6-mer enrichment (R)” 0.604.
`UAAGUA`: “6-mer enrichment (R)” 0.693.
`AAGUGG`: “6-mer enrichment (R)” 1.64.
Under “6-mer enrichment (R)”, `GGGGAG` is recorded as 8.41.
For `UGUACG`, “6-mer enrichment (R)” read 0.939.
For `UCUCCC`, “6-mer enrichment (R)” read 0.617.

Repeated from above (study 5):
`GCUUUG`: “6-mer enrichment (R)” 0.811.
`AGCUGG`: “6-mer enrichment (R)” 1.44.
`GCUCUU`: “6-mer enrichment (R)” 0.6.
`UAGCGU` — result for “6-mer enrichment (R)”: 0.811.
For `UUCAGC`, “6-mer enrichment (R)” read 0.613.
`AGUUAA`: “6-mer enrichment (R)” 0.604.
`UAAGUA`: “6-mer enrichment (R)” 0.693.
`AAGUGG`: “6-mer enrichment (R)” 1.64.
Under “6-mer enrichment (R)”, `GGGGAG` is recorded as 8.41.
For `UGUACG`, “6-mer enrichment (R)” read 0.939.
